# Experimental data from different studies.
# Numbered parts are unrelated; each lists some results of a single study. “And” joins repeats or separate records; there may be more than shown.
# Chain of UniProt P51955 (whole entry, looked up): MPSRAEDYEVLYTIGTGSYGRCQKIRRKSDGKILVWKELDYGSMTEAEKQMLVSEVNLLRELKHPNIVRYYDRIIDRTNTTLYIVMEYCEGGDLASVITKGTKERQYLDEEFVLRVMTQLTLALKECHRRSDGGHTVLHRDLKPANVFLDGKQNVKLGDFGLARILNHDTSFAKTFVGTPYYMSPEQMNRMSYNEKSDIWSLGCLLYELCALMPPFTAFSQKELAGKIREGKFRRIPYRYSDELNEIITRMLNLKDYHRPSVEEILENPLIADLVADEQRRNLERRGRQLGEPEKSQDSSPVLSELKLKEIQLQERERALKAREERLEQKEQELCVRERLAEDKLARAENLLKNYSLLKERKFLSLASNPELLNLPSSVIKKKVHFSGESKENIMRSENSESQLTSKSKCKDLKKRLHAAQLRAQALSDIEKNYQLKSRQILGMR
# Chain of UniProt Q9H3Y6 (whole entry, looked up): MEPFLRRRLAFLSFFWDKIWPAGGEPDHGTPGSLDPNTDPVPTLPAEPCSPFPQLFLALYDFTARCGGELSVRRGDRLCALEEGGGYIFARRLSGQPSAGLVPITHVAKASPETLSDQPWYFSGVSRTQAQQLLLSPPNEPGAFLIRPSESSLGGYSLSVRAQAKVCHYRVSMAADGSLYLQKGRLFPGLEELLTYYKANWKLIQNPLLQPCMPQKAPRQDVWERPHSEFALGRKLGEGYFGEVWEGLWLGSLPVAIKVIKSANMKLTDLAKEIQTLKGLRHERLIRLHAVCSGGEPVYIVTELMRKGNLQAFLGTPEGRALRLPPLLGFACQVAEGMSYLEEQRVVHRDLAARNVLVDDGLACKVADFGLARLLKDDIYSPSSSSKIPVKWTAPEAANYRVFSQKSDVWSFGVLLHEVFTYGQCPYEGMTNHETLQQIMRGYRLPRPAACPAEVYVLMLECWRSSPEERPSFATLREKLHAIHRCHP
# Chain of UniProt P10721 (whole entry, unmodified, looked up): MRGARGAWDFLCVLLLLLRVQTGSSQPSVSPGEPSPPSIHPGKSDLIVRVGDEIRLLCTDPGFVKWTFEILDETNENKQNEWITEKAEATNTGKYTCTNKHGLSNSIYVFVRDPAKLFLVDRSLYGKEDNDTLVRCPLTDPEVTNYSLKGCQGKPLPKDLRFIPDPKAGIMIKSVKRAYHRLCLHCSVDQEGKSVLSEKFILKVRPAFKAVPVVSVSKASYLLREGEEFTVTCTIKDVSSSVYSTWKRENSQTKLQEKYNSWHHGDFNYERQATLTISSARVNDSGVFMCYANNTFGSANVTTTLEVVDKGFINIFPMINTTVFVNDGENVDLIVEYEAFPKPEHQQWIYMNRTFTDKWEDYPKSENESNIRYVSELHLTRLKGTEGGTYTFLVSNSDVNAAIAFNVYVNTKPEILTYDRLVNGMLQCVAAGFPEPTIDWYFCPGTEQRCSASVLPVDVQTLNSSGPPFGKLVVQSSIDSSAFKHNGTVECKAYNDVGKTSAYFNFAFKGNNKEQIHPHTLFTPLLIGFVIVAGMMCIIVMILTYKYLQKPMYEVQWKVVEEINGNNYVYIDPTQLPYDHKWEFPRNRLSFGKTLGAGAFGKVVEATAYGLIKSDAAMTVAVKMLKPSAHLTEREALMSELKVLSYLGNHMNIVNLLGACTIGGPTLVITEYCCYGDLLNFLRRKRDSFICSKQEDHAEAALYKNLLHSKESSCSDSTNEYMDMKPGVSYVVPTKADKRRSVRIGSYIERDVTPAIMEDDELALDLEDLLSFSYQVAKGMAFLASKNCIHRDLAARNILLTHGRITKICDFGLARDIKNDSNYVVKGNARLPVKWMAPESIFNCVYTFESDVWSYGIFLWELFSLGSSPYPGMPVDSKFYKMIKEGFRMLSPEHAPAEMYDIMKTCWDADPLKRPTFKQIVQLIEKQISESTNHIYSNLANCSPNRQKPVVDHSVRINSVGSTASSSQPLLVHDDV
# Chain of UniProt Q96Q40 (whole entry, looked up): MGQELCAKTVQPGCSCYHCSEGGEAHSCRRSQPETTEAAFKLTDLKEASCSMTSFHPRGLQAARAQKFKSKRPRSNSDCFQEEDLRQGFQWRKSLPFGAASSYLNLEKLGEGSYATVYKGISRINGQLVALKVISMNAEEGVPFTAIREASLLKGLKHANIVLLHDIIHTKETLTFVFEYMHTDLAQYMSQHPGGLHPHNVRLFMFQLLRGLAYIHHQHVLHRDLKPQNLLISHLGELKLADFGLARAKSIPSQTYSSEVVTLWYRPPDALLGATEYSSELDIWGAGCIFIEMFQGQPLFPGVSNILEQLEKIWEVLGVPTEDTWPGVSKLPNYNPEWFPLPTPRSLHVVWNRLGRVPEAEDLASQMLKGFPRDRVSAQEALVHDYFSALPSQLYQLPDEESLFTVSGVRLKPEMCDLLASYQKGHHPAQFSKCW

# Set 1
# SMILES: O=C(N[C@H]1CCCCC/C=C\C2C[C@@]2(C(=O)O)NC(=O)[C@@H]2C[C@@H](Oc3ccncc3)CN2C1=O)OC1CCCC1 (stereo partly drawn)
# Method: competition with immobilised ligand
# Concentration: 1 µM
target,read-out,remaining binding
"FGFR4 (Homo sapiens, UniProt P22455)",cell-free assay,100%
"EGFR (Homo sapiens, UniProt P00533, G719S)",cell-free assay,63%
"PKN1 (Homo sapiens, UniProt Q16512)",binding,100%
"TNNI3K (Homo sapiens, UniProt Q59H18)",binding,100%
"CDK9 (Homo sapiens, UniProt P50750)",binding,91%
"BLK (Homo sapiens, UniProt P51451)",binding,63%
"MAP3K6 (Homo sapiens, UniProt O95382)",binding,100%
"ULK1 (Homo sapiens, UniProt O75385)",binding,100%
"CDK15 (Homo sapiens, UniProt Q96Q40)",binding,100%
"CAMKK2 (Homo sapiens, UniProt Q96RR4)",binding,95%
"BUB1 (Homo sapiens, UniProt O43683)",binding,100%
"SRMS (Homo sapiens, UniProt Q9H3Y6)",cell-free assay,100%
"Tyrosine-protein kinase ABL1, phosphorylated (ABL1, Homo sapiens, UniProt P00519, T315I)",binding,84%
"STK39 (Homo sapiens, UniProt Q9UEW8)",binding,100%
"PTK6 (Homo sapiens, UniProt Q13882)",binding,100%
"MAP3K19 (Homo sapiens, UniProt Q56UN5)",binding,93%
"NTRK2 (Homo sapiens, UniProt Q16620)",cell-free assay,100%
"DYRK1A (Homo sapiens, UniProt Q13627)",cell-free assay,84%
"MAPK12 (Homo sapiens, UniProt P53778)",binding,100%
"KIT (Homo sapiens, UniProt P10721, A829P)",binding,98%
"MAP2K3 (Homo sapiens, UniProt P46734)",binding,80%

# Set 2
# SMILES: COc1ccc2[nH]c3c4[nH]c5ccc(OC)cc5c4c4c(c3c2c1)C(=O)NC4=O
# Read-out: binding
# Concentration: 1 µM
target,method,remaining binding [%]
"SYK (Homo sapiens, UniProt P43405)",competition with immobilised ligand,73
"EPHA4 (Homo sapiens, UniProt P54764)",competition with immobilised ligand,86
"AKT2 (Homo sapiens, UniProt P31751)",,84
"MAP3K3 (Homo sapiens, UniProt Q99759)",competition with immobilised ligand,59
"NEK2 (Homo sapiens, UniProt P51955)",competition with immobilised ligand,78
"Non-receptor tyrosine-protein kinase TYK2, JH2 (TYK2, Homo sapiens, UniProt P29597)",competition with immobilised ligand,84
"MST1R (Homo sapiens, UniProt Q04912)",,93

# Set 3
# Host: human
# Matrix: microsomes or S9
# Concentration: 2 µM
# Time: 0.5 h
Structure (SMILES),remaining compound [%]
COC(=O)c1cc(O)c(=O)c2c(O)c(O)ccc2c1,38.9
O=C(NCc1cc2n(n1)CCNC2)c1cccc(OCc2cccc(F)c2)c1,64.6
O=C(Nc1ccccc1)C1CCCN1C1=NS(=O)(=O)c2ccccc21 (stereo not drawn),99.6
COc1cc(-c2coc3cc(O)c(OC)c(O)c3c2=O)cc(O)c1OC,66.4

# Set 4
# Target: DNA polymerase theta, ATPase domain (POLQ, Homo sapiens, UniProt O75417)
# Chain of UniProt O75417 (whole entry, unmodified, looked up): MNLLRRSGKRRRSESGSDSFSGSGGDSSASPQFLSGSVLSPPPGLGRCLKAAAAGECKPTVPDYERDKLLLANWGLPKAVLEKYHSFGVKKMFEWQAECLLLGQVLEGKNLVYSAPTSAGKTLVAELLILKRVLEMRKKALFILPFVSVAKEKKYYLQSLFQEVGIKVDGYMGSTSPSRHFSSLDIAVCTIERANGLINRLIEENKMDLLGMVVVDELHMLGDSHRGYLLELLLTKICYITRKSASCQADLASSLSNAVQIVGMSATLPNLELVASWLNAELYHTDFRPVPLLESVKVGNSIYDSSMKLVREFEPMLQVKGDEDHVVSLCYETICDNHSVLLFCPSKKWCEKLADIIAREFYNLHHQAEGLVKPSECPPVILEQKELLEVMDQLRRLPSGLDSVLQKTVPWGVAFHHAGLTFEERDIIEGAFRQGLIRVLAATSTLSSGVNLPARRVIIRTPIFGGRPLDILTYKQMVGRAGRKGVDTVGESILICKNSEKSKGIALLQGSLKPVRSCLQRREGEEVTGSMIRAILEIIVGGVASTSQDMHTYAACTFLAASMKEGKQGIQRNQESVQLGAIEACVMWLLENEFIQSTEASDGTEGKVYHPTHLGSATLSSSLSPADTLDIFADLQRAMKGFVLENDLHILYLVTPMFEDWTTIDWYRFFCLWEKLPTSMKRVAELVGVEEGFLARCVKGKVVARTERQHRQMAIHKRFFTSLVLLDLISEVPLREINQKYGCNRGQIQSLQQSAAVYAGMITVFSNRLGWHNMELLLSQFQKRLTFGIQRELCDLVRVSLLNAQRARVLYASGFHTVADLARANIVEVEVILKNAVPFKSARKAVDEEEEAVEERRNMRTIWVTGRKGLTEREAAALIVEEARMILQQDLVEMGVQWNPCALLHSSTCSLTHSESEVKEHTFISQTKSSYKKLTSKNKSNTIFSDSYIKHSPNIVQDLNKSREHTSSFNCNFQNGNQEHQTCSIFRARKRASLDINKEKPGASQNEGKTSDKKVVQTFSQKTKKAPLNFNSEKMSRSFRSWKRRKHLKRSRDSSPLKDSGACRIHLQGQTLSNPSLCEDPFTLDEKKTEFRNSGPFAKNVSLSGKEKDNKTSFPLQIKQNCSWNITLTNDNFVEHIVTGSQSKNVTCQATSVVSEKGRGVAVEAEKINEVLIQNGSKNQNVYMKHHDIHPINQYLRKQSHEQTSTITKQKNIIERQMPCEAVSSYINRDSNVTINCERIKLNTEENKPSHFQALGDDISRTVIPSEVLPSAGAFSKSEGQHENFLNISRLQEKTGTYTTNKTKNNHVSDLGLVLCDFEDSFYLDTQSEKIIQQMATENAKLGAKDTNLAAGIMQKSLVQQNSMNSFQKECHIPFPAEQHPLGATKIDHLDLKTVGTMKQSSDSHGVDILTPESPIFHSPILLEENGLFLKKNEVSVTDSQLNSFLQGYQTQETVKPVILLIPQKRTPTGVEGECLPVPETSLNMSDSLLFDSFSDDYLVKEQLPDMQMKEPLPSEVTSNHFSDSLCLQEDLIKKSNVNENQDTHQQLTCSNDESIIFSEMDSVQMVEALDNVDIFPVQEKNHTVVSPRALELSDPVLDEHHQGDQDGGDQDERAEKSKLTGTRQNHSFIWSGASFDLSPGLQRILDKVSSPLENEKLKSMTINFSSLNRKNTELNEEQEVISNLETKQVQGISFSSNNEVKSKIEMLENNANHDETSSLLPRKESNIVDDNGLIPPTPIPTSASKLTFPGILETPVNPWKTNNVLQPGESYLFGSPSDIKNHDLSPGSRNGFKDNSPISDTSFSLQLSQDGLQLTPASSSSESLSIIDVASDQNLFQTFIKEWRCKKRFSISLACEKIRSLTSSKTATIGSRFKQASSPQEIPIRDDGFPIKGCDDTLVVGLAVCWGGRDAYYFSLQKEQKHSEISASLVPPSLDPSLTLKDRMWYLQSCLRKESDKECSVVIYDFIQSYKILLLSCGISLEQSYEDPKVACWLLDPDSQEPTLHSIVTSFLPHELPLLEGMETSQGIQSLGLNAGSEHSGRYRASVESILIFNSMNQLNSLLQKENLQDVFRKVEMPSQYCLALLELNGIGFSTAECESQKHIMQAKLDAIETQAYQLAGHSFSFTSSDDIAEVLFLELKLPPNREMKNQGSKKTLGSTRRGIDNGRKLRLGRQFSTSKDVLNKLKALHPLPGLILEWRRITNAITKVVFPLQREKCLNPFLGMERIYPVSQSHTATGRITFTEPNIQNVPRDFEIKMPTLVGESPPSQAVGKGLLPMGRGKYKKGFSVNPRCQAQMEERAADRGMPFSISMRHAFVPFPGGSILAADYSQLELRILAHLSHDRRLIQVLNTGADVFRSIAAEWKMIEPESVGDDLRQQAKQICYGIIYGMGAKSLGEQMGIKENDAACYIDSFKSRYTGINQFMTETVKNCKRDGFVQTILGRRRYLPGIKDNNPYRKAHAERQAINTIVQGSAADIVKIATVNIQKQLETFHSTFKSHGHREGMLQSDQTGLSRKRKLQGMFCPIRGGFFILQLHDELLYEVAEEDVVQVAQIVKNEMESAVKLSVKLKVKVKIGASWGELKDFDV
# Read-out: enzyme activity
# Mode: inhibitor
# Concentration: 77 µM
# Baseline: untreated
SMILES,remaining activity
COCCc1ccc(OCC(O)CNC(C)C)cc1 (stereo not drawn),101%
O=C(NOCC(O)CO)c1cc(Br)c(F)c(F)c1Nc1ccc(I)cc1F (stereo not drawn),85.7%
CCCC(C)NC(=O)c1ccc(Cl)c(Cl)c1 (stereo not drawn),98.3%
Cc1ccc(S(=O)(=O)NC(=O)NN2CC3CCC[C@@H]3C2)cc1 (stereo in doubt),93.3% and 98.1%
O=c1[nH]c(=O)c2nc3ccccc3nc2[nH]1,95.6%

# Set 5
# Organism: Sarcocystis neurona
# Read-out: parasite growth
# Concentration: concentration not given
# Notes: first screen
# Baseline: untreated
SMILES,log2 fold change
CN(CCOc1ccc(CC2SC(=O)NC2=O)cc1)c1ccccn1.Cl (stereo not drawn),0.14
COc1nc(C)nc(Cl)c1NC1=NCCN1.Cl,-0.1
CN1CCC(=C2c3ccccc3CCc3sccc32)CC1.O=C(O)/C=C\C(=O)O,-0.07
CN1C(C(=O)Nc2ccccn2)=C(O)c2ccccc2S1(=O)=O.O,0.0319
CN(C)CCC=C1c2ccccc2CCc2ccccc21.Cl,-0.22

# For quick reference, copied from above (set 5):
SMILES,log2 fold change
CN(CCOc1ccc(CC2SC(=O)NC2=O)cc1)c1ccccn1.Cl (stereo not drawn),0.14
COc1nc(C)nc(Cl)c1NC1=NCCN1.Cl,-0.1
CN1CCC(=C2c3ccccc3CCc3sccc32)CC1.O=C(O)/C=C\C(=O)O,-0.07
CN1C(C(=O)Nc2ccccn2)=C(O)c2ccccc2S1(=O)=O.O,0.0319
CN(C)CCC=C1c2ccccc2CCc2ccccc21.Cl,-0.22
